Results pooled from the literature.
Parts stem from different laboratories: compare values within a part only.
Sequence of UniProt Q9HAZ1 (whole entry, looked up): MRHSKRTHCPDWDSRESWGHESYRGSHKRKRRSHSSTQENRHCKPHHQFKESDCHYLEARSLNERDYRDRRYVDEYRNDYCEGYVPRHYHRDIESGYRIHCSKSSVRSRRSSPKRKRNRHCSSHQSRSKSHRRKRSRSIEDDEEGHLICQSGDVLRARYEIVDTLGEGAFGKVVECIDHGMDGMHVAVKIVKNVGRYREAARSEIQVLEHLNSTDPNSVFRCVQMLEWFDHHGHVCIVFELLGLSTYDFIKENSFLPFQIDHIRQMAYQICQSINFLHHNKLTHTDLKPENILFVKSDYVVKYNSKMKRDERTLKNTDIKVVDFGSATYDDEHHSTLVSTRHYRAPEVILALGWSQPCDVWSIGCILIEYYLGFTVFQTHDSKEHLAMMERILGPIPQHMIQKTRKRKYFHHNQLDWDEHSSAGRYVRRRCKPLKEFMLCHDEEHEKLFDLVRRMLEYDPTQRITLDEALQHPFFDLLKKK
Sequence of UniProt O75417 (whole entry, unmodified, looked up): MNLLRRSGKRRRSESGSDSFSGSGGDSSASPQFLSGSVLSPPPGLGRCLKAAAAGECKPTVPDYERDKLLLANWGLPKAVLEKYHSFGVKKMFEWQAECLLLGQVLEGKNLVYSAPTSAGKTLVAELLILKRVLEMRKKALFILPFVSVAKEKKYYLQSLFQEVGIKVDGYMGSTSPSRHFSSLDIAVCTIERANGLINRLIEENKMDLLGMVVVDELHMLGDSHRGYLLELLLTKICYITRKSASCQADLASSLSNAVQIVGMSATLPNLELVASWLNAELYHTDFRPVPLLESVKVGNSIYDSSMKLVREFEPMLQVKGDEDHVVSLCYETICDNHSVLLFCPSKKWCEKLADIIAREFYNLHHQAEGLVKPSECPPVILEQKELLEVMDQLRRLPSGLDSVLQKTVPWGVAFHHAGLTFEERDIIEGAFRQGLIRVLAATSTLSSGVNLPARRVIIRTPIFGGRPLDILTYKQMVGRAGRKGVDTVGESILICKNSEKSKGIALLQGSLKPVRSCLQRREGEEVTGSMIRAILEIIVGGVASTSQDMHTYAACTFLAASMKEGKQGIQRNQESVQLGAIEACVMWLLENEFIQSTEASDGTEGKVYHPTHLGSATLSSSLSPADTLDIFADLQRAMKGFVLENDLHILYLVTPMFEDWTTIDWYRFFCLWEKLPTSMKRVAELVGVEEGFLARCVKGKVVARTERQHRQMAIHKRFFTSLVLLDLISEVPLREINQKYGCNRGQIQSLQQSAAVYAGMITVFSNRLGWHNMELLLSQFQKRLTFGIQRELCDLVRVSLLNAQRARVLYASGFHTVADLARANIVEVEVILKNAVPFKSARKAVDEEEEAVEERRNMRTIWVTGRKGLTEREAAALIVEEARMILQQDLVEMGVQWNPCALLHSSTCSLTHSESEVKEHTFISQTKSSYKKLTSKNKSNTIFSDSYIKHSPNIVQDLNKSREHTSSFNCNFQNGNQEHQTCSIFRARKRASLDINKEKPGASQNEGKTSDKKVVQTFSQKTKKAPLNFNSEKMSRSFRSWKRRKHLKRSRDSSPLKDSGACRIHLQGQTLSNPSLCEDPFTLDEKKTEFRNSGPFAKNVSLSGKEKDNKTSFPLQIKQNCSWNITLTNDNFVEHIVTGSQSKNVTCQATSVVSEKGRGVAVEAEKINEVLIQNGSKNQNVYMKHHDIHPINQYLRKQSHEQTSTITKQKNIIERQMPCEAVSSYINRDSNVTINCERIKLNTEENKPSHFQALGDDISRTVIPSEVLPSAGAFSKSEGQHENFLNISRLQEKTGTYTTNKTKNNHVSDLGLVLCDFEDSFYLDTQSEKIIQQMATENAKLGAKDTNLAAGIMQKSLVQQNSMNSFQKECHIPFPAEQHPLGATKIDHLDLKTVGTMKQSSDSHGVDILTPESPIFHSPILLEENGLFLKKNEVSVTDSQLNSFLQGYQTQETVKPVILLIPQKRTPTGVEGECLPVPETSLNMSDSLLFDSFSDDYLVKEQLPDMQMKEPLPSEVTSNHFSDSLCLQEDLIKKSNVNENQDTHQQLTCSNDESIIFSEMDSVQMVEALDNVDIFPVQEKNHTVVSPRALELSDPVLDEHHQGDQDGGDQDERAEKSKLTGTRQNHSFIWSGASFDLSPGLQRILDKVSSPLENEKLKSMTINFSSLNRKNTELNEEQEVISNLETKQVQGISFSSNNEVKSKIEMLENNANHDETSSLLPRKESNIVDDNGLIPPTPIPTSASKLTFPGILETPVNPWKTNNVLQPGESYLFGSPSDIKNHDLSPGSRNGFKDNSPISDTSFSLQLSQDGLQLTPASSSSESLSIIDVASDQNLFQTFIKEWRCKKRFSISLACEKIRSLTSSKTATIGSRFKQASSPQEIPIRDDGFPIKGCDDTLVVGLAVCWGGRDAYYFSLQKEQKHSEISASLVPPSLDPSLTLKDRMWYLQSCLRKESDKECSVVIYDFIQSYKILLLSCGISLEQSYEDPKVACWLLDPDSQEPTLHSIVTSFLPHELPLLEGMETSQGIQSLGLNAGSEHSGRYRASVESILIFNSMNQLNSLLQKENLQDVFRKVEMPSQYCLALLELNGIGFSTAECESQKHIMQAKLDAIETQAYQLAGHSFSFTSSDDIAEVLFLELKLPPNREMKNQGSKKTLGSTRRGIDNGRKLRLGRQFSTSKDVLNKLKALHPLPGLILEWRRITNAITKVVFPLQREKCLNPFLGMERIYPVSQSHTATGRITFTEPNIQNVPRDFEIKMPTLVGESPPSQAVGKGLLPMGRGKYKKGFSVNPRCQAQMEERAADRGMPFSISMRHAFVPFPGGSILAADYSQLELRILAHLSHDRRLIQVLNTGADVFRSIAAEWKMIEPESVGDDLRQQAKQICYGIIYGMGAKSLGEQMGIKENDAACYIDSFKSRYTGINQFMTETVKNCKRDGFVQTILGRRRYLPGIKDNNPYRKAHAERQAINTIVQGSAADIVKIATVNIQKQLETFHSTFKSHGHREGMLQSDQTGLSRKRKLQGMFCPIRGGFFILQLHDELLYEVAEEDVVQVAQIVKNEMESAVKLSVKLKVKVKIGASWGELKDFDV
Sequence of UniProt Q9H4B4 (whole entry, looked up): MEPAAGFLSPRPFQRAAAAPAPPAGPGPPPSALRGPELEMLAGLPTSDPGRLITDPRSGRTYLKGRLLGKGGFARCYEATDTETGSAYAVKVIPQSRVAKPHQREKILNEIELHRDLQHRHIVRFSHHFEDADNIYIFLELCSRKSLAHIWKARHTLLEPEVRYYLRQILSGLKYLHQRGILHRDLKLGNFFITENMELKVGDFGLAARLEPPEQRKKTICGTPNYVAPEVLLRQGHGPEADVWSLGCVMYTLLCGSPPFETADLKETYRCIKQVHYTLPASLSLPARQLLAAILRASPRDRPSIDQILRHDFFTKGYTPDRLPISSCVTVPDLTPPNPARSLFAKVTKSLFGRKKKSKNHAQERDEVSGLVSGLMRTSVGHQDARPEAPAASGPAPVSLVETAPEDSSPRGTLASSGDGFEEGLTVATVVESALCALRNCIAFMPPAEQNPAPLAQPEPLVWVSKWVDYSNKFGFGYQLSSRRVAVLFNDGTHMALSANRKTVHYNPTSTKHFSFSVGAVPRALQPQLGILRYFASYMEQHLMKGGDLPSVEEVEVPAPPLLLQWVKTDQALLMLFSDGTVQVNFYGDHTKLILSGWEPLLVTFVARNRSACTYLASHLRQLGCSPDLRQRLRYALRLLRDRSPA
Sequence of UniProt Q13237 (whole entry, looked up): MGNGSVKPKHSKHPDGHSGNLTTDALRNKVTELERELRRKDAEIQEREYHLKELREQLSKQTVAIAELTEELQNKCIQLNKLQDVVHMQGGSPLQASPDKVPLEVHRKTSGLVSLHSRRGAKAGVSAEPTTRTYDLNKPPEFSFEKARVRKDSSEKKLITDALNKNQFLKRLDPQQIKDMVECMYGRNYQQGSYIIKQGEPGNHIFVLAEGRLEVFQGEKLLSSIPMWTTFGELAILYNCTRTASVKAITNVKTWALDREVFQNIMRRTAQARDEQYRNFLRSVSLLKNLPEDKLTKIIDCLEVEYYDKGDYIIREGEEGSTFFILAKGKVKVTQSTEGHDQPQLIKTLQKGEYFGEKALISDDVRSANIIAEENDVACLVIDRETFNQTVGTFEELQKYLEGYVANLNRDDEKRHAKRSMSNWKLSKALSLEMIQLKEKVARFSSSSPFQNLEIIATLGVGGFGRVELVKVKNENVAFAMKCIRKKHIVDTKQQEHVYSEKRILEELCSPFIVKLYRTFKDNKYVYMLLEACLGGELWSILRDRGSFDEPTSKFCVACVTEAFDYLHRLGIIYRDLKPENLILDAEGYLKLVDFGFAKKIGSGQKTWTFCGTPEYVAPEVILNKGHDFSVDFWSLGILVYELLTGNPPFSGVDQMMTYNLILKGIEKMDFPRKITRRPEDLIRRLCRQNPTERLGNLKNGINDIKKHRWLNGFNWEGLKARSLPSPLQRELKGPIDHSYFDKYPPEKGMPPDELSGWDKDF

Sample 1
Compound: CCn1cnc2c(Nc3cccc(Cl)c3)nc(N[C@H]3CCCC[C@H]3N)nc21
Read-out: enzyme activity
Action: inhibitor
Concentration: 0.5 µM
Relative to: control
target | remaining activity
PRKG2 (Homo sapiens, UniProt Q13237) | 74.3%
MARK2 (Homo sapiens, UniProt Q7KZI7) | 90.1%
MAP2K1 (Homo sapiens, UniProt Q02750) | 92.2%
PLK3 (Homo sapiens, UniProt Q9H4B4) | 90.1%
CLK4 (Homo sapiens, UniProt Q9HAZ1) | 49.9%
PNCK (Homo sapiens, UniProt Q6P2M8) | 98.5%

Mixed results
pknB: Serine/threonine-protein kinase PknB (pknB, Mycobacterium tuberculosis, UniProt P9WI81)
Sequence of UniProt P9WI81 (whole entry, looked up): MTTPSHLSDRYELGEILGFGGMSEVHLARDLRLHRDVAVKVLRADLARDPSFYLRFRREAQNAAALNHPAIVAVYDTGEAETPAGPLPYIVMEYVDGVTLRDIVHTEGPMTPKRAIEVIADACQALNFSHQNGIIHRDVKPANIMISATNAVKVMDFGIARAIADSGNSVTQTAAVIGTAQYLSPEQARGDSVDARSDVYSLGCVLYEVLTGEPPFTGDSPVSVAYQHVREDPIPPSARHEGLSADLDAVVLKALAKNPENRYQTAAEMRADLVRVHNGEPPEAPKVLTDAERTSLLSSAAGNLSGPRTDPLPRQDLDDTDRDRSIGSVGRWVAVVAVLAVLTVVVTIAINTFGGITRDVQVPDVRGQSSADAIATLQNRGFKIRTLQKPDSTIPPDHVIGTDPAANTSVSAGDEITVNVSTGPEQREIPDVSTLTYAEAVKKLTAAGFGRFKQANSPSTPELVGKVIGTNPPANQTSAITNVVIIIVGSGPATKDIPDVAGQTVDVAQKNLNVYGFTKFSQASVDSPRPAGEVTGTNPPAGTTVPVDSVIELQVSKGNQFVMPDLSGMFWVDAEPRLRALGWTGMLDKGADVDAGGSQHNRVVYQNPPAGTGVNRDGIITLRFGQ
SMILES | tested on | test | test system | setting | scale | measurement | result
COCCOc1nc(-c2ccc(Cl)nc2)nc2c1CN(C(=O)c1ncn3ccccc13)CC2 | pknB | cell-free assay, competition with immobilised ligand | – | 0.1 µM | – | remaining binding | 86%
COc1ccc([C@@]23Oc4cc(OC)cc(OC)c4[C@]2(O)[C@H](O)C[C@H]3c2ccccc2)cc1 | EIF4A1 (Homo sapiens, UniProt P60842) | RNA clamping, fluorescence polarization | – | concentration not given, with: FAM-labelled poly r(AG)8 RNA | higher = more clamping | fluorescence polarization change | 66 mP
CCC(=O)N[C@@H]1CC[C@H](C(=O)N(C)c2ccc(-c3nc4ccccc4o3)cc2)C1 | CRK2 (Plasmodium falciparum, UniProt P61075) | cell-free assay, competition with immobilised ligand | – | 1 µM | – | remaining binding | 100%
O=C1CCC(N2Cc3c(ccc4c3OCC43CCN(Cc4ccccc4)CC3)C2=O)C(=O)N1 (stereo not drawn) | – | – | male Sprague-Dawley rat, plasma | oral, 3 mg/kg | – | bioavailability | 49.2%
CCCC[N+]1(C)[C@@H]2C[C@@H](OC(=O)[C@H](CO)c3ccccc3)C[C@H]1[C@@H]1O[C@@H]12 (single isomer, unassigned; (-)) | DNA polymerase theta, ATPase domain (POLQ, Homo sapiens, UniProt O75417) | enzyme activity, inhibitor | – | 77 µM | relative to: untreated | remaining activity | 100%
O=S(=O)(NC1CCC(c2cc(F)ccc2F)(S(=O)(=O)c2ccc(Cl)cc2)CC1)C(F)(F)F (stereo not drawn) | pknB | cell-free assay, competition with immobilised ligand | – | 1 µM | – | remaining binding | 91%

A few entries again (sample 1):
target | remaining activity
PRKG2 (Homo sapiens, UniProt Q13237) | 74.3%
PNCK (Homo sapiens, UniProt Q6P2M8) | 98.5%
